Assay results of several laboratories.
A part holds a random share of what one study measured. Positions count from the first letter of the parent shown.

Series 1 — technique: DHFR PCA, deep sequencing; matrix: yeast; with: (+)-ABA 2500 µM; baseline: wild-type fitted maximum; direction: higher = stronger binding
Target: ABI1, truncated, D143A, DHFR fusion (Arabidopsis thaliana)
Notes: methotrexate growth selection, single substitutions
Starting sequence: PYL1, truncated, DHFR fusion (Arabidopsis thaliana); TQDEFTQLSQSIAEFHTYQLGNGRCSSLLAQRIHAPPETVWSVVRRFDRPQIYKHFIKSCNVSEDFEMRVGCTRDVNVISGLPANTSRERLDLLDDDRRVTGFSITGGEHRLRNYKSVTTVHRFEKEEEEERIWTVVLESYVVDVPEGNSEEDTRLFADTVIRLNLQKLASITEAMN
For `R155E`, “relative binding score” read 85.4%.
For `P83K`, “relative binding score” read 19.7%.
`Q10N` — result for “relative binding score”: 106%.
`S26V`: “relative binding score” 94%.
`L8H`: “relative binding score” 91.4%.
Under “relative binding score”, `V118H` is recorded as 111%.

Series 2 — technique: protein-binding microarray; molecule type: double-stranded DNA, one strand shown; matrix: in vitro; tested at: 250 nM; notes: 60-bp whole probe; with: salmon DNA 0.4 mg/ml; baseline: random background probes; direction: higher = stronger binding; constant ends, left off below: GCCTAGCAC … GTCTTGATTCGCTTGACGCTGCTG
Target: Interferon regulatory factor 5, full length, phosphomimetic (IRF5, Homo sapiens, UniProt Q13568-2, residues 1-514, K96S/S451D/S453D/S456D/S462D)
For `GTTTCTTTTCTTTTCTTTTTGTGCTAG`, the log fluorescence was 3.72 z-score.
With `TTAGATTTCGGGTTACGATTAGTGCTA` the log fluorescence was 5.93 z-score.
`ATATATATATATACAGATATGTGCTAG` gave a log fluorescence of 1.93 z-score.
`GACGAACTGAGACTTGAGACGTGCTAG` has a log fluorescence of -0.474 z-score.
`TGTGCTTTCCTCGTGATGCTGTGCTAG` has a log fluorescence of 0.0853 z-score.
For `GACGATCTCAGTATGGAGACGTGCTAG`, the log fluorescence was -0.14 z-score.

Series 3 — technique: RNA Bind-n-Seq; molecule type: RNA; matrix: in vitro; tested at: 365 nM; baseline: no-protein control; direction: higher = stronger binding
Target: RNA binding protein fox-1 homolog 2, RRM domain, GST-SBP tag (RBFOX2, Homo sapiens, UniProt O43251-10, residues 100-194)
Notes: natural RNA segment, single round, ends assumed
Target sequence (chain): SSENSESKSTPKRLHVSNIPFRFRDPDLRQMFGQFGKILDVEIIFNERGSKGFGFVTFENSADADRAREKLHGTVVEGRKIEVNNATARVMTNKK
For `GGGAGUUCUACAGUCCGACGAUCUAUGGCCUGAGCACAGCUGAAAUCUAGCAGAGUUUAACUCUUCUGCCUCCAUGUCUGUCACUUAUAAUUCAGGUUCUGCUGUUGGCUUCAGAACAUGAGCAGAAGAAUCGUGGAAUUCUCGGGUGCCAA`, “RBNS enrichment (R)” read 0.408.
Under “RBNS enrichment (R)”, `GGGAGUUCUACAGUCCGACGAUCCUGGAAUAGAAACCACACACUGGCUUGCUGUGCACCAGCCACUUUGCAUCUAAUCCAAGCUUUGAAGGGUGUUGCUUGGGAGGAAACAAAUACAGCCUUCCAUCUUCACUUGGAAUUCUCGGGUGCCAA` is recorded as 0.474.
For `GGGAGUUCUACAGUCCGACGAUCUUCUACUCUCAGAACUGCCCCAGUGCUUGCUGGGUAGACUUUUCAUCUAAGACAGUGGAUUUUUCAAAAAGACCUUUUUUCUAUUGUUUGAGAAAAAUCAUUGUUUCUUGUGGAAUUCUCGGGUGCCAA`, “RBNS enrichment (R)” read 0.504.
`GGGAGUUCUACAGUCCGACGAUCUAUUUCUAUAAGGAUGGAUUUAUAAUUUUCCCCUCAACAUGGCAACUCUCUCUGUGAAAAUUUAAAUUGUGUGUGUUCUAUCUUUAGAUCCCCUCCAUUUAUUUGUUUAAUGGAAUUCUCGGGUGCCAA`: “RBNS enrichment (R)” 0.325.
Under “RBNS enrichment (R)”, `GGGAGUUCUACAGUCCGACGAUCUUCACUGUGGUCUUUUCCAGAUAAGUUACUUCUUUUGCAUCUGAAAUGGGAUGUGGCCAUGGCAUUGCUAGAAUAUGGUGUGCUUUUAGAACAAAUGUGGCCUUCUCAUGUGGAAUUCUCGGGUGCCAA` is recorded as 1.55.
For `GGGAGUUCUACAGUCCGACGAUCGAAACAAGUCUAGUCUUCUGGUUUUCUAGCCCCUCUGGAUUCCCUUUUGACUCUUCCGUGCAUCCCAGAUAAUGGAGAAUGUAUCAGCCAGCCUUCCCCACCAAGUCUAAUGGAAUUCUCGGGUGCCAA`, “RBNS enrichment (R)” read 0.542.
For `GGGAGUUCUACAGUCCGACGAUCGGGGUUAUAUUUCUAAGUGAUUUACAAUUUCUGUUUCUAAAAUUGUUGGGAUUUAGAAAUGUUUCAAUUCCAAGAAAUUUUAUUUUACUUUACCAUGAGAUUGCCAUUUAUGGAAUUCUCGGGUGCCAA`, “RBNS enrichment (R)” read 0.749.
Under “RBNS enrichment (R)”, `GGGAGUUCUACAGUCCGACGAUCCCCUCCCAGUGUUUGCAGAGCUGAGAUUUUCCUAAUGACCUAAGAAGAUACUGACGUAGAACGGUAUUAGAAAAUGACACUUCAAAAAUGUUGGAUACCAAAGCACGGUAUGGAAUUCUCGGGUGCCAA` is recorded as 1.48.

Other studies, line by line
With `PhoQ, residues 284 288 289 292 302 303 TLASMF` the fold induction was 0.841 (PhoP, residues 12 14 15 18 19 NHFRA (Escherichia coli, UniProt P23836); Sort-seq, item: YFP reporter; E. coli; PhoQ-PhoP variant library, with: 10 µM Mg2+; baseline: high Mg2+ state, higher = stronger signaling).

For quick reference, copied from above (series 3):
For `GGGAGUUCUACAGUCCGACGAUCGGGGUUAUAUUUCUAAGUGAUUUACAAUUUCUGUUUCUAAAAUUGUUGGGAUUUAGAAAUGUUUCAAUUCCAAGAAAUUUUAUUUUACUUUACCAUGAGAUUGCCAUUUAUGGAAUUCUCGGGUGCCAA`, “RBNS enrichment (R)” read 0.749.
For `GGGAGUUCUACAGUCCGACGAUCUAUGGCCUGAGCACAGCUGAAAUCUAGCAGAGUUUAACUCUUCUGCCUCCAUGUCUGUCACUUAUAAUUCAGGUUCUGCUGUUGGCUUCAGAACAUGAGCAGAAGAAUCGUGGAAUUCUCGGGUGCCAA`, “RBNS enrichment (R)” read 0.408.
Under “RBNS enrichment (R)”, `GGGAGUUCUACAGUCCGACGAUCUUCACUGUGGUCUUUUCCAGAUAAGUUACUUCUUUUGCAUCUGAAAUGGGAUGUGGCCAUGGCAUUGCUAGAAUAUGGUGUGCUUUUAGAACAAAUGUGGCCUUCUCAUGUGGAAUUCUCGGGUGCCAA` is recorded as 1.55.
`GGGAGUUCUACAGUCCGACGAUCUAUUUCUAUAAGGAUGGAUUUAUAAUUUUCCCCUCAACAUGGCAACUCUCUCUGUGAAAAUUUAAAUUGUGUGUGUUCUAUCUUUAGAUCCCCUCCAUUUAUUUGUUUAAUGGAAUUCUCGGGUGCCAA`: “RBNS enrichment (R)” 0.325.
